Assay results of several laboratories.
Each line is one published result; not all experiments were run side by side. Numbers after ± are the reported error.
Nuclear receptor subfamily 2 group C member 2 ligand-binding domain: Nuclear receptor subfamily 2 group C member 2, ligand-binding domain (Homo sapiens, UniProt P49116)
UniProt P49116, sequence (whole entry, looked up): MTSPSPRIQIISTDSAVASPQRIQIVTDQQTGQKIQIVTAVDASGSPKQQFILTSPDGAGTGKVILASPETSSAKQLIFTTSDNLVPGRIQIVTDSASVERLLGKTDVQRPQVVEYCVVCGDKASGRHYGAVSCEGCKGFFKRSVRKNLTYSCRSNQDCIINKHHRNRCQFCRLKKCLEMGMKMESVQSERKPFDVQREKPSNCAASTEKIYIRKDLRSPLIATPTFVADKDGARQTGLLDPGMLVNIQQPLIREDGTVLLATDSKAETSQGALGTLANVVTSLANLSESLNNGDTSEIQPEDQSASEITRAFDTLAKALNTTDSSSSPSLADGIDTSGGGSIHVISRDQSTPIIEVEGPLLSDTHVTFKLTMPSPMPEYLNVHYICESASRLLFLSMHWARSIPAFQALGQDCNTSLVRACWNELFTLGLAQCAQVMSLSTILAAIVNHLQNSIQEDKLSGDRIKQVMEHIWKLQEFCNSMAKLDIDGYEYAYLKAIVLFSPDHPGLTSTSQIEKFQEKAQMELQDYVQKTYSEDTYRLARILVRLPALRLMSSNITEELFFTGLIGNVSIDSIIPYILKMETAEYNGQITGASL
UniProt Q8NEZ5, sequence (whole entry, looked up): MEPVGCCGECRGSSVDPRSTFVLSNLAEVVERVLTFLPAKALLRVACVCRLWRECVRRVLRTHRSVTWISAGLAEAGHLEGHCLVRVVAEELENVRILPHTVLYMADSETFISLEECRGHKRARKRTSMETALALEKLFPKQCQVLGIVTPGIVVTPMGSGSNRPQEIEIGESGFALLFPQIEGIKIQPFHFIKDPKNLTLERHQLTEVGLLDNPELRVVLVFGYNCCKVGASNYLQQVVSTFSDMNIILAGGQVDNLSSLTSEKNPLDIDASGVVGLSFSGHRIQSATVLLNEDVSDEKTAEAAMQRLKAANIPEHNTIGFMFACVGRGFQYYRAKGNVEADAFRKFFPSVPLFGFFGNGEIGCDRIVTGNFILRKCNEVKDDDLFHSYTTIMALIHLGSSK
UniProt Q5AP53, sequence (whole entry, looked up): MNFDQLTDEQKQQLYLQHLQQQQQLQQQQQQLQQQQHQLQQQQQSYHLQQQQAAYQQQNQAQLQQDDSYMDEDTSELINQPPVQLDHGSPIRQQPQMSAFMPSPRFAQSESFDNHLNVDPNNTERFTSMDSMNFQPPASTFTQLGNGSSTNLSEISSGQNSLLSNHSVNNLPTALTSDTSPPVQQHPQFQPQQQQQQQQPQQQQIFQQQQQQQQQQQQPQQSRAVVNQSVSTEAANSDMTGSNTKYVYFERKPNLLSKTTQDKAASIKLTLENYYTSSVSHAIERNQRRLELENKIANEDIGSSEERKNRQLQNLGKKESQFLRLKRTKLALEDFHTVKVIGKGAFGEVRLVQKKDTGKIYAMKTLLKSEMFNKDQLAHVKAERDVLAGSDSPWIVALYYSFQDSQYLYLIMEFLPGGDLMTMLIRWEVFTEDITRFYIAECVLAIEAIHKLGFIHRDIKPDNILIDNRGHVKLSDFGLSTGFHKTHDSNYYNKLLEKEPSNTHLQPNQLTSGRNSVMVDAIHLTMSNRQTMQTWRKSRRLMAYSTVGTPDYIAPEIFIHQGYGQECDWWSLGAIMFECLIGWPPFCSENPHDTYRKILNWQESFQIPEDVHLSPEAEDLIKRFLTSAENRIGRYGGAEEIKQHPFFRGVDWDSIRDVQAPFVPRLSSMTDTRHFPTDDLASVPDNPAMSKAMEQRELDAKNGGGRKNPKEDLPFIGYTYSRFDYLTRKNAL
UniProt P46100, sequence (whole entry, unmodified, looked up): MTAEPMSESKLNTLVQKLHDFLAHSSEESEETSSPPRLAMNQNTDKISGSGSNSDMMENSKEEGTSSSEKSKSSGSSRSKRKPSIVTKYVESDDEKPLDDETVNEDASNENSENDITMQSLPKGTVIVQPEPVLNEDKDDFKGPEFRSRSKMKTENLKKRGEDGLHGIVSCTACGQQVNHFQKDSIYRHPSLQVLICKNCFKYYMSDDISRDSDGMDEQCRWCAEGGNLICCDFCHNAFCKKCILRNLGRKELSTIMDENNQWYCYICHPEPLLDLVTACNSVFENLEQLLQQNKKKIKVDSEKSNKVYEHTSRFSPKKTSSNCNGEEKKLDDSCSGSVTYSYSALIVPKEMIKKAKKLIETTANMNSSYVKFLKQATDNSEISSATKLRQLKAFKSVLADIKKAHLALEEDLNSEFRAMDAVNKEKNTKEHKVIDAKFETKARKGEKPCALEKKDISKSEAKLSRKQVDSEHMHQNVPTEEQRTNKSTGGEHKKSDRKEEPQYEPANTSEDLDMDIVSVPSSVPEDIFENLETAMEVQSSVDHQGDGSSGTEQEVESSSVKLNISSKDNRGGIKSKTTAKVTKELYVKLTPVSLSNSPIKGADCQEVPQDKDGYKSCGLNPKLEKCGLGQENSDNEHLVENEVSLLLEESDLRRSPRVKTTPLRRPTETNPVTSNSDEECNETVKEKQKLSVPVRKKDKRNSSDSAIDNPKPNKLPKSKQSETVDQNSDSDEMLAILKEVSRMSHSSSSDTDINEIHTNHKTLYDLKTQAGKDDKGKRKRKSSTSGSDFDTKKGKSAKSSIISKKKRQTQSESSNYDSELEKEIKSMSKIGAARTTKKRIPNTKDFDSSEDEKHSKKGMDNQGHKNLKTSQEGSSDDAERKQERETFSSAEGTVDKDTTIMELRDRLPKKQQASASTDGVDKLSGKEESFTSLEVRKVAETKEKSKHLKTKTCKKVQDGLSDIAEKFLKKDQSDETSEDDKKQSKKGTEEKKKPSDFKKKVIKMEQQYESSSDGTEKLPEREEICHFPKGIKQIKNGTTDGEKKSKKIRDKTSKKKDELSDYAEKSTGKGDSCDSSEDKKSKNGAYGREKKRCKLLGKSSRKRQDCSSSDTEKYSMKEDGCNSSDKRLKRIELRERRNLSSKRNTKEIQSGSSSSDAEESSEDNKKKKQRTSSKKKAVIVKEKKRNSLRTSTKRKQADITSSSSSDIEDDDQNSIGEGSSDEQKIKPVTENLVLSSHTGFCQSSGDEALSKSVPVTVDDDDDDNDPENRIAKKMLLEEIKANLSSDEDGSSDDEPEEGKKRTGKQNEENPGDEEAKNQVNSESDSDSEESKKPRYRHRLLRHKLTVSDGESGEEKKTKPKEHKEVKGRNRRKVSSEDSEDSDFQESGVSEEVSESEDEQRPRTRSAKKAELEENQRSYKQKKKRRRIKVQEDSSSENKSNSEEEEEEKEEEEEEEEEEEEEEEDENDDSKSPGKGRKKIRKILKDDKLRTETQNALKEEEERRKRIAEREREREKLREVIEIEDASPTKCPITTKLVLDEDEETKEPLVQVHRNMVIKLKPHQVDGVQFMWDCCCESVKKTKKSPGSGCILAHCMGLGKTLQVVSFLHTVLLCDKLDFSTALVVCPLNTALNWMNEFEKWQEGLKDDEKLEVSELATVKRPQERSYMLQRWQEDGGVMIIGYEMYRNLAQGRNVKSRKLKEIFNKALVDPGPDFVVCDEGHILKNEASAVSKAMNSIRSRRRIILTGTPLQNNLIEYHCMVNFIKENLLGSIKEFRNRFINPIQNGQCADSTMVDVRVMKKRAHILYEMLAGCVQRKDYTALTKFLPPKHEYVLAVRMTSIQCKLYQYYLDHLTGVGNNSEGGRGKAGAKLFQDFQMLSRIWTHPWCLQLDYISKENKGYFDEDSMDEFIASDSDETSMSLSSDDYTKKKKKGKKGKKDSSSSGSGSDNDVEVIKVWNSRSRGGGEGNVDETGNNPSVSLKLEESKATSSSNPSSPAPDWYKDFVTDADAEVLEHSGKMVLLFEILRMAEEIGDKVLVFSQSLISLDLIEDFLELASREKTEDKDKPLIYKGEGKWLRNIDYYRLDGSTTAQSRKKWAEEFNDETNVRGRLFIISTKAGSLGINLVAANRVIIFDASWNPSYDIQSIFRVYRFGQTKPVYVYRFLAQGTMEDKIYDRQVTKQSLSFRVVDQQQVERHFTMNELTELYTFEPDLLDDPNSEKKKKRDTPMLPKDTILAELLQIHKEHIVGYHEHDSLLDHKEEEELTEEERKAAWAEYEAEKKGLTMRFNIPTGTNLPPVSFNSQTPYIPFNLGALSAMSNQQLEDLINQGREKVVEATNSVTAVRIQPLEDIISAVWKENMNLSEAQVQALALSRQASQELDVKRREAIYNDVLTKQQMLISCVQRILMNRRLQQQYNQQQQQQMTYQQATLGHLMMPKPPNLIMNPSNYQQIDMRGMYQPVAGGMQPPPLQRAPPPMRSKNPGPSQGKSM
UniProt Q8TDW0, sequence (whole entry, looked up): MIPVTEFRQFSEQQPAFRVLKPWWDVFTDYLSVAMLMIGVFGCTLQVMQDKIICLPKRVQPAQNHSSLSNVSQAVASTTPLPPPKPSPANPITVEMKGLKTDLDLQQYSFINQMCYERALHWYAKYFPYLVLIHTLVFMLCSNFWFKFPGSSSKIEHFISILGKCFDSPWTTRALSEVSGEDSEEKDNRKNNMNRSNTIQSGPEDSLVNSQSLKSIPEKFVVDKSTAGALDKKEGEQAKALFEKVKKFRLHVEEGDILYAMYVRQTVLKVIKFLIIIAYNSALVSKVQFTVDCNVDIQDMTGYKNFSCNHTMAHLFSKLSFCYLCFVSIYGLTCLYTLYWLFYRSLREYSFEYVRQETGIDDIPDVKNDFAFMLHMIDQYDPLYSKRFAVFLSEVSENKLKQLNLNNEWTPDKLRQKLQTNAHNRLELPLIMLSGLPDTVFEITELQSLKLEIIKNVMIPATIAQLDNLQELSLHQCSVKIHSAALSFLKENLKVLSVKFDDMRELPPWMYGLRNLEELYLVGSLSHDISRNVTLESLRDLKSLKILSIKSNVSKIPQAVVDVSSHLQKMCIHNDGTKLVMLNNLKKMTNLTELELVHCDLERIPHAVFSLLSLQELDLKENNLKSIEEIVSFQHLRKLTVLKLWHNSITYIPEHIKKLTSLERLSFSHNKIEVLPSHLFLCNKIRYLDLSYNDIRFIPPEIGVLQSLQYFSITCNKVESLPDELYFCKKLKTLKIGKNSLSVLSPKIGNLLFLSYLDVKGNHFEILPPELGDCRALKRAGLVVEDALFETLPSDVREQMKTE

Compound	target or system	test	test system	setting	scale	measurement	value
Cc1cccc(Nc2ccccc2C(=O)O)c1C	Nuclear receptor subfamily 2 group C member 2 ligand-binding domain	SPR imaging		600 nM		koff	1.96e-07 s⁻¹
CN(C)CCN(C)C(=O)c1ccc(NC(=O)Nc2ccc(-c3nc(N4CCOCC4)c4ccn(CC(F)(F)F)c4n3)cc2)cc1	NUDT1 (Homo sapiens, UniProt P36639)	activator		200 µM, screen		activity	> 200%
Cn1cc(-c2ccc(-c3cncc(Cl)c3N3CCC4(CCNC4=O)CC3)cc2)cn1	COLO 205	microarray, refers to: PLAUR		concentration not given, 2 h, gene set uPAR	baseline: untreated cells	fold change in expression	2.02
Nc1nc2c(ncn2[C@@H]2O[C@H](COP(=O)(O)OP(=O)(O)O)[C@@H](O)[C@H]2O)c(=O)[nH]1	GUK1 (Homo sapiens, UniProt Q16774)	ITC		concentration not given		ΔH of binding	-27.2 ± 3.35 kJ/mol
COc1cc2c(c(OC)c1OC)C(=O)c1c(cc(C)c(O)c1OC)C2=O	HepaRG co-cultured with HK-2	MTT		33.33 µM, 24 h	baseline: untreated control	cell viability	99.8 ± 7.69%
N[C@@H](Cc1ccccc1)C(=O)O	PAL1 (Petroselinum crispum, UniProt P24481, Y110F)	binding, ITC				ΔH	-158 kJ/mol
C[C@H](N)C(=O)N[C@@H](CCCNC(=N)N)C(=O)N[C@H](C(=O)N[C@@H](CCCCN(C)C)C(=O)N[C@@H](CCC(N)=O)C(=O)N[C@H](C(=O)N[C@@H](C)C(=O)N[C@@H](CCCNC(=N)N)C(=O)N[C@@H](CCCCN)C(=O)N[C@@H](CO)C(=O)N[C@H](C(=O)NCC(=O)NCC(=O)N[C@@H](CCCCN)C(=O)N[C@@H](C)C(=O)N[C@@H](Cc1ccc(O)cc1)C(=O)O)[C@@H](C)O)[C@@H](C)O)[C@@H](C)O	Transcriptional regulator ATRX (ATRX, Homo sapiens, UniProt P46100, F284Y/K251R)	isothermal titration calorimetry		concentration not given, pH 7.5, 25.0 °C		binding entropy	0.84 cal/mol/K
Oc1ccc(/C=C/c2cc(O)cc(O)c2)cc1	O-methyltransferase (Sorghum bicolor, UniProt A0A1B6PFV1)	ITC		concentration not given, together with: ADE+		binding stoichiometry	0.62 ± 0.005
Cc1ccc(N2CC(C(N)=O)CC2=O)cc1 (stereo not drawn)	F-box only protein 22, with SKP1 (Homo sapiens, UniProt Q8NEZ5)	binding, affinity selection mass spectrometry			baseline: other proteins in batch	log fold enrichment	0
CCOc1ccc(NC(=O)O[C@H](Cn2nc(C(C)C)cc2C(C)C)C(C)C)cc1	Neuronal acetylcholine receptor; alpha4/beta2 (Homo sapiens, UniProt P17787+P43681)	ion current, potentiator, TEVC		1 µM, low-sensitivity (α4)3(β2)2, together with: ACh 10 µM	baseline: ACh alone	ACh peak current	94 ± 4%
C=C1CN(S(=O)(=O)c2ccc(C)cc2)CCCN(Cc2ccccc2)CCCN(S(=O)(=O)c2ccc(C)cc2)C1	Protein transport protein Sec61 subunit alpha isoform 1 (Homo sapiens, UniProt P61619)	Sec61-dependent translocation, inhibitor, refers to: CD4 signal peptide-FLuc reporter	HEK293	0.04 mM, 6 h		FLuc/RLuc ratio	0.968
COc1cccc2c(Nc3ccc4[nH]c(C(=O)N/N=C/c5ccc(SC)cc5)cc4c3)cc(C)nc12	COS-7			3 µM, 24 h, 0.1% DMSO, unit not given	baseline: vehicle control	apoptotic cells	19.5 ± 7.35
Oc1ccccc1-c1n[nH]cc1-c1ccnc2ccccc12	Serine/threonine-protein kinase CBK1 (CBK1, Candida albicans, UniProt Q5AP53)	kinase binding, MIB/MS competition	Candida albicans lysate	1 µM	baseline: DMSO, negative = stronger binding	log2 fold change	-0.03
CCCC[C@H]1CN(c2cccc(OC(F)(F)F)c2)C(=O)CN1Cc1cncn1Cc1ccc(C#N)cc1	Cryptococcus neoformans farnesyltransferase	enzyme activity, inhibitor, fluorescence		together with: 1 µM FPP, 0.5 µM dansylated peptide		IC50	0.34 ± 0.22 µM
O=c1nc(SCc2cc(F)cc(C(F)(F)F)c2)nc(SCc2ccc3sccc3c2)[nH]1	TOP2A (Homo sapiens, UniProt P11388)	decatenation		125 µM, replicate 2		decatenated DNA	0%
Cc1cc(-c2ccnc3[nH]cc(F)c23)cc(F)c1[C@@]1(O)[C@H](C)CN(C(=O)CN)C[C@@H]1C	AKT1 and AKT3	ATP probe binding, KiNativ, refers to: Lys1 site	HEK293T cell lysate	10 µM		inhibition	1.5%
O=C(CCCCCCC(=O)Nc1ccc(I)cc1)NO	OCI-Ly1			1 µM, 120 h		viability	8.12%
CS(=O)(=O)Nc1ccc([N+](=O)[O-])cc1Oc1ccccc1	Nuclear receptor subfamily 2 group C member 2 ligand-binding domain	binding				koff	9.84e-07 s⁻¹
O=C(CCCCCN1C(=O)c2cccc3cccc(c23)C1=O)NO	OCI-Ly1			1 µM, 120 h		viability	45.7%
CC#Cc1cncc(-c2ccc3c(c2)[C@@]2(N=C(C)C(N)=N2)[C@]2(CC[C@H](OC)CC2)C3)c1	Beta-secretase 1 (BACE1, Homo sapiens, UniProt P56817)	binding, surface plasmon resonance		20 µM		time to complete displacement	~15 h
COc1cc(C(=O)NS(=O)(=O)c2ccccc2C)ccc1Cc1cn(C)c2ccc(NC(=O)OC3CCCC3)cc12	LRRC8A/LRRC8C (Homo sapiens, UniProt Q8IWT6+Q8TDW0)	ion current, inhibitor, whole-cell patch clamp	HCT116 LRRC8 knockout, transfected	+100 mV, LRRC8A/LRRC8C heteromer		Hill coefficient	1.34

Repeated from above:
Compound	target or system	test	test system	setting	scale	measurement	value
C=C1CN(S(=O)(=O)c2ccc(C)cc2)CCCN(Cc2ccccc2)CCCN(S(=O)(=O)c2ccc(C)cc2)C1	Protein transport protein Sec61 subunit alpha isoform 1 (Homo sapiens, UniProt P61619)	Sec61-dependent translocation, inhibitor, refers to: CD4 signal peptide-FLuc reporter	HEK293	0.04 mM, 6 h		FLuc/RLuc ratio	0.968
CN(C)CCN(C)C(=O)c1ccc(NC(=O)Nc2ccc(-c3nc(N4CCOCC4)c4ccn(CC(F)(F)F)c4n3)cc2)cc1	NUDT1 (Homo sapiens, UniProt P36639)	activator		200 µM, screen		activity	> 200%
